Earlier results as cited in several papers.
Protocols differ between the studies behind these lines. ± marks the error that the study gave.
Chain of UniProt O35627 (whole entry, unmodified, looked up): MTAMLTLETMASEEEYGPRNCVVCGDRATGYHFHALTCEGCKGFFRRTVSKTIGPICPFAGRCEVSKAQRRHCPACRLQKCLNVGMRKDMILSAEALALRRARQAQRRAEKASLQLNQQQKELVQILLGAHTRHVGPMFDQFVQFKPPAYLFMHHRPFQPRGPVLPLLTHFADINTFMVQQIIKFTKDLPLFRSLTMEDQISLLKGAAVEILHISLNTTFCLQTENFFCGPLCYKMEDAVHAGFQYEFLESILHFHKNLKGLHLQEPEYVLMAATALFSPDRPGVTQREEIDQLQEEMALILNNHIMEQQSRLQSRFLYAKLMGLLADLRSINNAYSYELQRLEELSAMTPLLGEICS

CC[C@H](C)[C@H](NC(=O)[C@H](CCCCN)NC(=O)[C@H](Cc1c[nH]cn1)NC(=O)[C@@H](N)CCCNC(=N)N)C(=O)N[C@@H](CC(C)C)C(=O)N[C@@H](Cc1c[nH]cn1)C(=O)N[C@@H](CCCNC(=N)N)C(=O)N[C@@H](CC(C)C)C(=O)N[C@@H](CC(C)C)C(=O)N[C@@H](CCC(N)=O)C(=O)N[C@@H](CCC(=O)O)C(=O)NCC(=O)N[C@@H](CO)C(=O)O — −TΔS (Nuclear receptor subfamily 1 group I member 3, with RXR (Mus musculus, UniProt O35627); binding, isothermal titration calorimetry; pH 7.2, 25°C): 2.8 kcal/mol
Cc1nc2ccccc2c(O)c1CC=C(Cl)Cl — IC50 (Trypanosoma brucei brucei; Squib 427): > 32 µM
CC12CCC3c4ccc(O)cc4CCC3C1CCC2O (stereo not drawn) — EC50 (HT-22; cell protection; with: glutamate 10 mM): 10.2 µM
Nc1nc(O)c2ncn(COC(CO)CO)c2n1 — IC50 (human cytomegalovirus; viral replication, inhibitor, colorimetric): 9 µM
N=C(N)c1ccc(OCCCCCOc2ccc(C(=N)N)cc2)cc1 — IC50 (Trypanosoma congolense; IL3000): 0.33 ± 0.05 µM
C[C@]12CC=C3c4ccc(O)cc4CC[C@H]3[C@@H]1CC[C@@H]2O — EC50 (HT-22; cell protection; with: iodoacetic acid 40 µM): 1.72 µM
c1ccc(-c2ccc(-c3nc4ccccc4[nH]3)cc2)cc1 — IC50 (Trypanosoma brucei rhodesiense; STIB 900): > 32 µM
CO[C@@H]1[C@@H]2OP(=O)(O)OC[C@H]2O[C@H]1n1c(Sc2ccc(Cl)cc2)nc2c(N)ncnc21 — Km or Ki (PDE5; cyclic nucleotide hydrolysis, substrate or inhibitor, isothermal titration calorimetry): 3.12 µM
CCOC(=O)c1c(C)n(-c2ccccc2)c2ccc(OC(=O)c3cc(OC)c(OC)c(OC)c3)cc12 — IC50 (Trypanosoma brucei rhodesiense; STIB 900): 10.8 µM
C=CCCCC[C@@H](C)C(=O)N(C)[C@H](C(=O)N(C)[C@H](C(=O)N[C@H](C(=O)N(C)[C@@H](C)C(=O)N(C)[C@@H](Cc1ccccc1)C(N)=O)C(C)C)C(C)C)C(C)C — IC50 (Leishmania donovani): 1.9 µM
Cc1ccccc1-c1cc(N2CCN(C)CC2)ncc1N(C)C(=O)C(C)(C)c1cc(C(F)(F)F)cc(C(F)(F)F)c1 — half-life (healthy volunteers; oral, 450 mg single dose, mean, with: palonosetron 0.75 mg): 88.1 h
CCOc1cccc(C(=O)Nc2ccc(-c3nc4ccccc4[nH]3)cc2)c1 — IC50 (Trypanosoma brucei brucei; Squib 427): > 32 µM
Clc1cccc(Nc2ccc3c(N4CCCCC4)ncnc3n2)c1 — IC50 (Plasmodium falciparum; 3D7; 72 h, whole cell): 0.577 µM
COc1ccc2sc(N(Cc3cccnc3)C(=O)c3ccc(C#N)cc3)nc2c1 — IC50 (Trypanosoma brucei rhodesiense; STIB 900): 16.1 µM
CCCCCCCCCCCCCCCC[N+](C)(C)C — IC50 (Theileria equi; growth): 14 µM
O=C1c2cccc3c2[C@H](CCC3)CN1[C@@H]1CN2CCC1CC2 — Vz/F (patients, plasma; oral, dose not given, netupitant-palonosetron combination, with: cyclophosphamide 500 to 1000 mg/m^2 IV): 668 L
C=CCCCCCC(=O)N(C)[C@H](C(=O)N(C)[C@H](C(=O)N(C)[C@H](C(=O)N(C)[C@@H](C)C(=O)N(C)[C@@H](Cc1ccccc1)C(=O)OC)C(C)C)C(C)C)C(C)C — IC50 (Leishmania donovani): > 14 µM
c1cc(CN2CCCNCCNCCCNCC2)ccc1CN1CCCNCCNCCCNCC1 — IC50 (HIV; viral replication): 0.01 µM
C#CCCCCC(=O)N(C)[C@H](C(=O)N(C)[C@H](C(=O)N(C)[C@H](C(=O)N(C)[C@@H](C)C(=O)N(C)[C@@H](Cc1ccccc1)C(=O)N(C)C)C(C)C)C(C)C)C(C)C — IC50 (Leishmania donovani): 3.1 µM
c1ccc(CNc2nc(Nc3ccccc3)nc3ccccc23)cc1 — IC50 (Trypanosoma brucei rhodesiense; STIB 900): 3.1 µM
CO[C@@H]1[C@H](OC(=O)/C=C/C=C/C=C/C=C/C(=O)O)CC[C@]2(CO2)[C@H]1[C@@]1(C)O[C@@H]1CC=C(C)C — IC50 (Giardia duodenalis; growth): 0.002 to 0.01 µM
Cc1cc(Nc2ccc(C)c(Cl)c2)n2nc(C(F)(F)F)nc2n1 — IC50 (Trypanosoma brucei brucei; Squib 427): > 32 µM
Cc1cccc2nc(-c3ccc(-c4ccc(CN5CC(C)OC(C)C5)cc4)cc3)[nH]c12 (stereo not drawn) — IC50 (Plasmodium falciparum; 3D7; 72 h, whole cell): 0.522 µM
Cc1cc2nc(N)[nH]c2cc1C — IC50 (Pseudomonas aeruginosa; LasR quorum sensing; PAO1 reporter): 37.5 µM
CC(=O)c1ccc(NC(=O)CSc2nc(-c3ccccc3Cl)ns2)cc1 — IC50 (Trypanosoma brucei brucei; Squib 427): > 32 µM
CC(=O)c1cccc(N[C@H]2[C@H](N)[C@@](NC(=O)N(C)C)([C@H](C)O)[C@@](C)(O)[C@@]2(O)COC(=O)c2c(C)cccc2O)c1 — GI50 (NCI-H322M): 0.12 µM
C[C@H]1c2cccc(O)c2C(=O)C2=C(O)[C@]3(O)C(=O)C(C(N)=O)=C(O)[C@@H](N(C)C)[C@@H]3[C@@H](O)[C@@H]21 — IC50 (Wolbachia; Wolbachia load, high-content imaging; C6/36, wAlbB): 0.016 µM
N=C(N)c1ccc(N=NNc2ccc(C(=N)N)cc2)cc1 — IC50 (Trypanosoma equiperdum; cell growth; IVM-t1): 0.011 ± 0.0029 µM
N=C(N)c1cccc(/C=N/N=C(\N)N/N=C/c2cccc(C(=N)N)c2)c1 — IC50 (Trypanosoma cruzi; parasite growth): 20 µM
NCCCC(N)(C(=O)O)C(F)F (stereo not drawn) — IC50 (Trypanosoma brucei brucei; cell growth; GUTat3.1): 38.6 ± 9.88 µM
Nc1nc2c(nc(Sc3ccc(Cl)cc3)n2C2OC3COP(O)(=S)OC3C2O)c(=O)[nH]1 (stereo not drawn) — Km or Ki (PDE6; cyclic nucleotide hydrolysis, substrate or inhibitor, isothermal titration calorimetry): 26 µM
Cc1ccc(C(=O)Nc2ccc(S(=O)(=O)O)c3cc(S(=O)(=O)O)cc(S(=O)(=O)O)c23)cc1NC(=O)c1cccc(NC(=O)Nc2cccc(C(=O)Nc3cc(C(=O)Nc4ccc(S(=O)(=O)O)c5cc(S(=O)(=O)O)cc(S(=O)(=O)O)c45)ccc3C)c2)c1 — IC50 (Trypanosoma equiperdum; cell growth; IVM-t1): 0.038 ± 0.014 µM
CCCCCCCCCCCCCCCCOP(=O)([O-])OCC[N+](C)(C)C — IC50 (Trypanosoma brucei rhodesiense; parasite growth; in vitro): 47 µM

For quick reference, copied from above:
Cc1cccc2nc(-c3ccc(-c4ccc(CN5CC(C)OC(C)C5)cc4)cc3)[nH]c12 (stereo not drawn) — IC50 (Plasmodium falciparum; 3D7; 72 h, whole cell): 0.522 µM
Cc1cc2nc(N)[nH]c2cc1C — IC50 (Pseudomonas aeruginosa; LasR quorum sensing; PAO1 reporter): 37.5 µM
CC(=O)c1ccc(NC(=O)CSc2nc(-c3ccccc3Cl)ns2)cc1 — IC50 (Trypanosoma brucei brucei; Squib 427): > 32 µM
CC(=O)c1cccc(N[C@H]2[C@H](N)[C@@](NC(=O)N(C)C)([C@H](C)O)[C@@](C)(O)[C@@]2(O)COC(=O)c2c(C)cccc2O)c1 — GI50 (NCI-H322M): 0.12 µM
C[C@H]1c2cccc(O)c2C(=O)C2=C(O)[C@]3(O)C(=O)C(C(N)=O)=C(O)[C@@H](N(C)C)[C@@H]3[C@@H](O)[C@@H]21 — IC50 (Wolbachia; Wolbachia load, high-content imaging; C6/36, wAlbB): 0.016 µM
